Assay results collected from several papers.
Numbered parts are unrelated; each lists some results of a single study.

Series 1 — technique: RNA Bind-n-Seq; molecule type: RNA; matrix: in vitro; tested at: not given; baseline: input RNA pool; direction: higher = stronger binding; quantity: bound/input enrichment
Target: RING finger protein unkempt homolog, zinc fingers 1-6, GST-SBP tag (UNK, Homo sapiens, UniProt Q9C0B0, residues 30-357)
Setting: RNA with constant flanks, human and mouse sites, ends assumed
All sequences stand within: GGGAGUUCUACAGUCCGACGAUC … CAACAGAGGAUUGAGCAUCA
Residues (chain): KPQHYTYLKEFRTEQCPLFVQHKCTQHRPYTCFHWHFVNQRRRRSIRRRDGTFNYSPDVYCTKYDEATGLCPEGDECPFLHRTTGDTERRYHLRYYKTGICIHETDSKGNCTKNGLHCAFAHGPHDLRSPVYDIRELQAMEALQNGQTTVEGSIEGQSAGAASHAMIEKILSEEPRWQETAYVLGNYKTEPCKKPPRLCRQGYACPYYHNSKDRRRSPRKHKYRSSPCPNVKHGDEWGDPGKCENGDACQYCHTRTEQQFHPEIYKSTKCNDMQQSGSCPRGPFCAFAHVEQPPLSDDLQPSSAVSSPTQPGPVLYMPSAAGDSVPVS
UAUAUUUUGGAUUCUGUUUGUGUUGAAUUUUUUAAUCAUUGUGCACAGAAGCAUCAUUGGUAGCUUUUAUAUGCAAAUGGUCAUUUCAGAUGUAUGGUGUUUUUACACUACAAAGAAGUC: 0.0699 ratio
CGUGGAGAUACAGACCAGGCCAGUAAUAUUUUGGCCAGCUUUGGUCUGUCUGCUAGAGACUUAGAUGAACUGAGUCGCUAUCCAGAGGACAAGAUUACUCCUGAGAACUUGCCCCAAAUU: 0.122 ratio
GCCAUUGACUAUGAGUCGUUCUAUGUUUACGCACAGCUGCCUGUCACCCCAGAUGUCCUCAUCAUCCCGUCAGAGCUGAGGUACUUCGUGAAGGAUGUCCUCGGCUGUGUCUGUGUGAAC: 0.112 ratio
CUGACCGGCGGGUCCCAGAGACCUGCCCCCAAGGUGUCCCACUGUGUGGCUAAGGGUGGGAUAGAACCCGGGCUGGGAGAGCCGGGUUAUGGGUUCCAGUGGUGGUUCCGCCGCUUCCUU: 0.224 ratio
AACUCCUGUGAUGAACACAUGGAGCUUGAUGACCUUCCUGAACUUCAGGCAGUUCAAAGUGAUCCUACCCAAUCUGGCAUGUACCAGCUGAGUUCAGAUGUUUCACAUCAAGAAUACCCA: 0.0916 ratio
CUCCCCUACGCGCUACACAAGUGGAGCUCCUUUUCCUCCACCUACCUUCCCGAGAACAUUUUAGUGGACAAACCAAAUGACCAAUCUUCAAGAUGGUCUUCAGAGAGCAACUAUCCUCCC: 1.02 ratio
GCCAGUGCAAAGUAGCCAGAAGGCUGCCACGCCAGAGCGGCACAGAGUUCCCAAGUGUUCUUAGUUUUCGUGUCCGAGCGUCUUGGGCCGCUCUCUCCGGAGAACUGCGACCAGGAUGUG: 0.0953 ratio
UCUGCAAUAGUUGGGUUUAUCUACGGGUACGUGGCUGAACAGUUUGGGUGGACUGUCUACAUAGUUAUGGCCGGAUUUGCUUUCUCCUGUUUGCUGACACUUCCUCCAUGGCCUAUCUAC: 0.231 ratio
CAUAUUUUAGAGGUAAUCAUGUCUUCUAGAUUACUUGUGUGCAUUUGAUUGGGCUUCUUGUUUAGGGUCCCUUUUAAAAUUAAUUCAUUAGAUUGAAAAAUGUAUUCUAUAUUUCUGAUA: 6.88 ratio
AUUCUUUUAUCACCAAAAAAGAGAAGAAAUAUUGCAGUGAAUGAAGAUUCCUCUGCAUUUUAGCACUGCUUUUUCAACUGUAGUUGGCUUUUGAAUGAGGAUGACAAUGGAAGAGAUGAA: 0.181 ratio
CAUAGUGAACGAGAAAUGAGGAACACACUAGAAAAAUUUACUGCAAGCAUCCAGCGUUUAAUAGAGCAAGAAGAAUAUUUGAAUGUCCAAGUUAAGGAACUUGAAGCUAAUGUACUUGCU: 2.45 ratio

Series 2 — technique: RNAcompete; molecule type: RNA; matrix: in vitro; tested at: 20 nM; setting: 7-mer, probes averaged, single round; baseline: mean of 7-mers; direction: higher = stronger binding; quantity: 7-mer Z-score
Target: PABPC1L2, full length, GST fusion (mouse, UniProt A0ABA7IW68)
Construct (chain): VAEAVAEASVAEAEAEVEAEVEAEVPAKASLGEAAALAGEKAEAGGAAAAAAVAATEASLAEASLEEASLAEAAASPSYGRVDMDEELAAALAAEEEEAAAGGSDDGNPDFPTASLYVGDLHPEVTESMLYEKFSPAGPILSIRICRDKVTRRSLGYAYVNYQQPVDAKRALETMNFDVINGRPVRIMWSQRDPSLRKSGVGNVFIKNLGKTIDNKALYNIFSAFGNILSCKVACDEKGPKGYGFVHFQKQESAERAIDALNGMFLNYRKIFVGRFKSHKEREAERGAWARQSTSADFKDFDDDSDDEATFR
GGUAAAU: 0.492
AAGUUUG: -0.121
GUUUCUG: -0.389
CCCAGUC: -0.364
CCGUUCU: -0.391
UGGCAAA: 0.697
GACAGGC: -0.0917
CACGACG: -0.215
GAGCAGC: -0.175
CUGGUUA: -0.195
ACAUUCU: -0.224
CUUGUUC: -0.508
GAGAACC: 0.0116
UUCGGUU: -0.38
ACGCCCG: -0.164
AACGCAU: -0.0736

Series 3 — technique: protein-binding microarray; molecule type: double-stranded DNA, one strand shown; matrix: in vitro; tested at: 250 nM; setting: 60-bp whole probe; added: salmon DNA 0.4 mg/ml; baseline: random background probes; direction: higher = stronger binding; quantity: log fluorescence; all sequences stand within: GCCTAGCAC … GTCTTGATTCGCTTGACGCTGCTG
Target: Interferon regulatory factor 5, full length, phosphomimetic (IRF5, Homo sapiens, UniProt Q13568-2, residues 1-514, K96S/S451D/S453D/S456D/S462D)
TTAGATTTCAGGACTGGATTAGTGCTA: 0.682 z-score
GGGCACATCTTAACATATGAGTGCTAG: -0.392 z-score
TTAGGACTGGGTCTCGCTTAGTGCTAG: -0.641 z-score
TTTTTTTTCACTATTGCTTCGTGCTAG: 3.5 z-score
TTAGGTCTCCATCTCCTTTAGTGCTAG: -0.0204 z-score
TATTTTTTTGTAATCGAAATGTGCTAG: 1.84 z-score
TCACTTCTGTTTTTGCTACTGTGCTAG: 1.19 z-score
CCATTTCTGTTTTTGCTTTCGTGCTAG: 5.07 z-score
GACGATATCGGGACTGGCGACGTGCTA: 0.991 z-score
CAGCCTCTGAGCAGCTCGGCGTGCTAG: -0.527 z-score
TCAGCATTCGAATTCAGACTGTGCTAG: -0.067 z-score
TTTGGTTTCGGGTTTCGGTTAGTGCTA: 11 z-score
GACGCTCTCAGTTTCGAGACGTGCTAG: 4.88 z-score
TTAGGTTTCGACACTGGGTTTGTGCTA: 5.84 z-score
GACGAACTGGGGACTGGAGTCGTGCTA: -0.603 z-score
GACGGTATCGACTTTCGGCACGTGCTA: 6.91 z-score
TTAGATTTCAGTCTCGTTTAGTGCTAG: 2.48 z-score
TTACAACTGAGTATCGATTAGTGCTAG: 6.93 z-score
GACGGTTTCGGTGTCGGGACGTGCTAG: 8.78 z-score
TCAGATTTCAATTAGAAACTGTGCTAG: 1.24 z-score
TCAAGAATGCCTTTAATACTGTGCTAG: -0.0543 z-score
GACGGACTGGGTCTAGGGACGTGCTAG: -0.847 z-score
GACGATCTCAGTATCAAGACGTGCTAG: 0.158 z-score
TCACCTTGGCCTCTAGGACTGTGCTAG: -0.798 z-score
TTAGGTCTCCTTCTACTTTAGTGCTAG: 0.0411 z-score

Series 4 — technique: protein binding microarray; molecule type: double-stranded DNA, one strand shown; matrix: in vitro; tested at: not given; baseline: not given; direction: higher = stronger binding; quantity: E-score
Target: Histone acetyltransferase KAT6A, winged helix 1, GST fusion (KAT6A, Homo sapiens, UniProt Q92794, residues 1-85)
Setting: 8-mer, flanks averaged, mean of 2 arrays, mostly near background
Residues (chain): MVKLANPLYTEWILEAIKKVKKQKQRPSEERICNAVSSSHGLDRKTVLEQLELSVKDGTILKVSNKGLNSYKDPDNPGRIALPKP
TCGTACCA: -0.0536
CACTATCG: 0.05
AGATGCGA: 0.12
AGCCCCTA: -0.225
CTGTAACA: -0.0652
ACCCTTTG: -0.0453
ACGTGGTA: -0.246
AGCAAACA: -0.144
CAACTGGC: -0.162
CGAGTAAG: 0.0701
ACCTGACG: -0.00666
AACACAGT: -0.17
ATCTAAGC: -0.0488
AACATGAG: 0.0264
AGTCTGGC: -0.219
ACGGGATG: 0.248
AGTTAAGC: -0.0698
ACACTGGT: -0.155
GTGCCTGA: -0.115
AGCTCCGA: -0.00766
ACCTGGTG: -0.0597
ACCCGCCA: 0.212
GATCATCA: -0.152
TATAAATA: -0.0241

Series 5 — technique: RNA Bind-n-Seq; molecule type: RNA; matrix: in vitro; tested at: 365 nM; baseline: no-protein control; direction: higher = stronger binding; quantity: RBNS enrichment (R)
Target: RNA binding protein fox-1 homolog 2, RRM domain, GST-SBP tag (RBFOX2, Homo sapiens, UniProt O43251-10, residues 100-194)
Setting: natural RNA segment, single round, ends assumed
All sequences stand within: GGGAGUUCUACAGUCCGACGAUC … UGGAAUUCUCGGGUGCCAA
Construct (chain): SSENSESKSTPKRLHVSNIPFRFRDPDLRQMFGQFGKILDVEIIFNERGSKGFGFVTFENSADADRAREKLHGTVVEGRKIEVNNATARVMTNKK
UUUUCUACUUGUGUGUCUGGGGGAAUGAACGCACAGAUCUGUUUGACUUUGUUAUAAAAAUAGGGCUCCCCCACCUCCCCCAUUUCUGUGUCCUUUAUUGUAGCAUUGCU: 1.13
GUCUGGCUGCGGGGAAGGGGCAAGAAGGCGGGCAGGCCUUCACUGCAGCACUGAGCCUCAAAUCCGCUCUGGAGCAUGAGGCUGGAUGCAGUGGUGGUGAGGCCGCCCCG: 0.419
UUACAAUUUUUACAGCUUUCCUAGGAUUUUAAAAUGGAAAUGUCAAUAAAUGCUACGAAUCGGUGUGAAGCUGUUCUUUGUGGUUCAUUCCUUGGGAACACGGUGGCUUU: 0.455
CUGGUUAGCCUUUGGAAUUUUUGUUGAUGAAAUCUCAAUACAUAAGGCGUCAACAGGGGGCUGGAGAGAUGGCUCAGGAGUUAAGAGCCCUGACUGCUCUUCCACAGGUC: 0.287
ACAUUCACUACAUAUUUAAUCAUGCUUAAAAUGUUUGUAUUUACUGCCAUGCAAUUGAUAUAGUAAAUCGACUAGAAAAUUAGUAUGCCACUUAAUUAAGAUAAAAAUGC: 0.604
GAAGGCUGUCAGCUGCUCAGCCUGCUUUGAGCCUCAGUGAGAAGUCCUUCCGACAGGAGCUGACUCAUGUCAGGAUGGCAGGCCUGGUAUCUUGCUCGGGCCCUAGCUGU: 0.805
CCUUUAAAACUAAUCUCAGAAAAAUUUUUGGUGCCCAUGCAGCUGUAGUUGUUCACUGCUUUCCUGGAUGGAUGGGACUCUUAUGUCAUAACUUCUGUUACUCCUUUGGC: 0.361
GACUGUGUGGGGCUCAGCAUUGGGAGGGGUUGCACAUGUCCCAGCCUUUGGCCCCCUUACUUUUCAGCAAGCCAGGGGCCCAGCAGUCAGCUCCCAGGAUGUGUGGGGAG: 2.73
CGUUCCUUACUGCAGAAUAGCAUAUAUAUCGCUUAAUCUUAAAUUUAUUAGAUAUGAGUUGUUUUCAGACUCAGACUCCAUUUGUAUUAUAGUCUAAUAUACAGGGUAGC: 0.867
GAGGAUCAGAAAGAUACCCCAGCUCCAUCAUAGUUUGAGUCAUGUUUCUAUGCCACUUUGGUCCCCAACCAAAGUGAAUCUGUCCCAUGUUAGGCACUCCUCUGACCUGA: 0.557
GGUUUGUGAAGUUUCACUCGUUGCCUAAAAUGCCCGAUGCCUCGUCUCCAGACCUUGCUGCCCUUGCCUGGUCAUCUUUGUACAGUAAUUGUAAAUGGCAGUGGAGACUA: 0.499
GGACUGGUCCCGGGUGCCUUCCAAGCACAGUCUCCAUGCUCCCAGAUUCUCGACCUUCCCCCGGCCCGGGAGGUGCAGCCUGCGUCUGCCUCUGUCGUGUGUGCUGAUUU: 0.316

A few entries again (series 5):
CUGGUUAGCCUUUGGAAUUUUUGUUGAUGAAAUCUCAAUACAUAAGGCGUCAACAGGGGGCUGGAGAGAUGGCUCAGGAGUUAAGAGCCCUGACUGCUCUUCCACAGGUC: 0.287
ACAUUCACUACAUAUUUAAUCAUGCUUAAAAUGUUUGUAUUUACUGCCAUGCAAUUGAUAUAGUAAAUCGACUAGAAAAUUAGUAUGCCACUUAAUUAAGAUAAAAAUGC: 0.604
GAAGGCUGUCAGCUGCUCAGCCUGCUUUGAGCCUCAGUGAGAAGUCCUUCCGACAGGAGCUGACUCAUGUCAGGAUGGCAGGCCUGGUAUCUUGCUCGGGCCCUAGCUGU: 0.805
GACUGUGUGGGGCUCAGCAUUGGGAGGGGUUGCACAUGUCCCAGCCUUUGGCCCCCUUACUUUUCAGCAAGCCAGGGGCCCAGCAGUCAGCUCCCAGGAUGUGUGGGGAG: 2.73
UUACAAUUUUUACAGCUUUCCUAGGAUUUUAAAAUGGAAAUGUCAAUAAAUGCUACGAAUCGGUGUGAAGCUGUUCUUUGUGGUUCAUUCCUUGGGAACACGGUGGCUUU: 0.455
CGUUCCUUACUGCAGAAUAGCAUAUAUAUCGCUUAAUCUUAAAUUUAUUAGAUAUGAGUUGUUUUCAGACUCAGACUCCAUUUGUAUUAUAGUCUAAUAUACAGGGUAGC: 0.867
GUCUGGCUGCGGGGAAGGGGCAAGAAGGCGGGCAGGCCUUCACUGCAGCACUGAGCCUCAAAUCCGCUCUGGAGCAUGAGGCUGGAUGCAGUGGUGGUGAGGCCGCCCCG: 0.419
